# Experimental data of several laboratories.
# Compare with care: the assays were run in different laboratories. ± gives the spread as reported.
Structure (SMILES),assay,test system,setting,how to read,endpoint,result
C[C@@H]1CCN(C(=O)CC#N)C[C@@H]1N(C)c1ncnc2[nH]ccc12,,"human, ulcerative colitis patients, plasma","oral, 10 mg twice daily",baseline: rheumatoid and psoriatic arthritis patients,AUC difference,≤ 20%
CNCc1ccc(-c2[nH]c3cc(F)cc4c3c2CCNC4=O)cc1,,human patients,"oral, 400 mg twice daily, day 1, mean, together with: bevacizumab",,AUC at steady state,15500 ± 800 ng·h/mL
CCOc1ccc(Cc2cc([C@]34OC[C@](CO)(O3)[C@@H](O)[C@H](O)[C@H]4O)ccc2Cl)cc1,,"human, type 2 diabetes, severe renal impairment, plasma","oral, 15 mg",,AUC,1900 ng·h/mL
CCCCCCCCCCCCCCC[C@H](O)[C@@H](N)CO,,"human, phase I, plasma","intravenous, 360 mg/m^2, day 1, monotherapy",,AUC,76 µM·h
CCOc1ccc(Cc2cc([C@]34OC[C@](CO)(O3)[C@@H](O)[C@H](O)[C@H]4O)ccc2Cl)cc1,pooled meta-analysis,"human, plasma","oral, dose not given, together with: light meal",baseline: fasted,AUC dose-proportionality slope fold change,0.896
CO[C@H]1C[C@@H]2CC[C@@H](C)[C@@](O)(O2)C(=O)C(=O)N2CCCC[C@H]2C(=O)O[C@H]([C@H](C)C[C@@H]2CC[C@@H](O)[C@H](OC)C2)CC(=O)[C@H](C)/C=C(\C)[C@@H](O)[C@@H](OC)C(=O)[C@H](C)C[C@H](C)/C=C/C=C/C=C/1C,,"human, whole blood","oral, 30 mg, mean",,AUC,2710 ng·h/mL
COc1cc2nccc(Oc3ccc(NC(=O)C4(C(=O)Nc5ccc(F)cc5)CC4)cc3)c2cc1OC,population PK model,"human, metastatic renal cell carcinoma, plasma","oral, dose not given",,AUC,18000 ng·h/mL
Cc1[nH]c(/C=C2\C(=O)Nc3ccccc32)c(C)c1CCC(=O)O,HPLC-UV,"human, plasma","oral, 400 mg/m^2 twice daily, day 28",,AUC,54800 ng·h/mL
COc1cc(Nc2ncc3c(n2)-c2ccc(Cl)cc2C(c2c(F)cccc2OC)=NC3)ccc1C(=O)O,,"human, phase I","oral, 30 mg, 0 to 8 h, estimated by accumulation",,AUC steady state,7500 ± 1730 ng·h/mL
CC(C)c1nc(N(C)S(C)(=O)=O)nc(-c2ccc(F)cc2)c1/C=C/[C@@H](O)C[C@@H](O)CC(=O)O,,"human, plasma","oral, dose not given, together with: finerenone dosed 4.25 h after",baseline: with over without finerenone,AUC ratio,105%
O=c1[nH]cc(F)c(=O)[nH]1,,"human, plasma","intravenous, 2400 mg/m^2 maintenance, cycle 1 without vorinostat, twice-daily cohort",,AUC,21800 ± 9680 ng·h/mL
COc1cc(Nc2ncc3c(n2)-c2ccc(Cl)cc2C(c2c(F)cccc2OC)=NC3)ccc1C(=O)O,,"human, plasma","oral, 40 mg twice daily, day 7, steady state geometric mean",,AUC dosing interval,13.7 µM·h
CCS(=O)(=O)N1CC(CC#N)(n2cc(-c3ncnc4[nH]ccc34)cn2)C1,,healthy Chinese humans,"oral, 2 to 10 mg once daily, 7 days",,AUC accumulation,≤ 10%

# For quick reference, copied from above:
Structure (SMILES),assay,test system,setting,how to read,endpoint,result
COc1cc(Nc2ncc3c(n2)-c2ccc(Cl)cc2C(c2c(F)cccc2OC)=NC3)ccc1C(=O)O,,"human, phase I","oral, 30 mg, 0 to 8 h, estimated by accumulation",,AUC steady state,7500 ± 1730 ng·h/mL
CCS(=O)(=O)N1CC(CC#N)(n2cc(-c3ncnc4[nH]ccc34)cn2)C1,,healthy Chinese humans,"oral, 2 to 10 mg once daily, 7 days",,AUC accumulation,≤ 10%
